Measured values of several laboratories.
Each numbered part is a random draw from the data of one study; scales do not carry over between parts.

Block 1 — method: protein-binding microarray; molecule type: double-stranded DNA, one strand shown; sample: in vitro; tested at: not given; reading: higher = stronger binding
Target: Hepatocyte nuclear factor 3-beta, forkhead domain (FOXA2, Homo sapiens, UniProt Q9Y261, residues 142-269)
Notes: k-mer, scored over probes, only values ≥0.25
Residues (chain): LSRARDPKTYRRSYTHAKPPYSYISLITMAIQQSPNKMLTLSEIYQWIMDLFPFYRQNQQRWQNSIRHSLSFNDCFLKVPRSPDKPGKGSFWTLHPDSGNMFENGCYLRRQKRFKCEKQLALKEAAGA
Oligonucleotide | E-score
ATGGTATA | 0.326
AATAGTAA | 0.288
ATATTTTA | 0.26
TATAAATA | 0.331
ACCATATG | 0.307
ATATACAA | 0.376
ATGATACA | 0.322
TAAAGTTA | 0.278
AAATACAT | 0.309
ATACACAC | 0.3
GTACATAC | 0.311
TAGTAATA | 0.285
TATATCCA | 0.302
ACTGTTTA | 0.38
ACTACAAC | 0.279
ACTTATAT | 0.332
AAATCGTT | 0.254
AATATTGA | 0.328
ATGTTACA | 0.34
ACATTAAG | 0.313
ATTATTTG | 0.369
ATCAGTTG | 0.284
CTATATAA | 0.292
TATTAGAA | 0.284
CACACAAA | 0.34

Block 2 — method: RNA Bind-n-Seq; molecule type: RNA; sample: in vitro; tested at: 20 nM; notes: 6-mer, flanks averaged, single round; added: 150 mM KCl; baseline: input library; reading: higher = stronger binding
Target: TAR DNA-binding protein 43, full length, His tag (TARDBP, Homo sapiens, UniProt Q13148, residues 1-414)
Oligonucleotide | 6-mer enrichment (R)
UGUCCG | 0.797
UUGACA | 0.698
GUGUAA | 0.964
CUAUGA | 0.635
AUUCCU | 0.536
CCGGAC | 0.944
AUGCGG | 1.73
UUUUAC | 0.644
AGUAUU | 0.612
GUCCUA | 0.628
GGUUAU | 0.825
UAACAG | 0.718
UUUCCG | 0.613
AUUCUA | 0.566

Block 3 — method: RNA Bind-n-Seq; molecule type: RNA; sample: in vitro; tested at: 365 nM; baseline: no-protein control; reading: higher = stronger binding
Target: RNA binding protein fox-1 homolog 2, RRM domain, GST-SBP tag (RBFOX2, Homo sapiens, UniProt O43251-10, residues 100-194)
Notes: natural RNA segment, single round, ends assumed
Construct (chain): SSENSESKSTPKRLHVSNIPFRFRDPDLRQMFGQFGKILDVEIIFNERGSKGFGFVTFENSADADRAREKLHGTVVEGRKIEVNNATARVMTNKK
Oligonucleotide | RBNS enrichment (R)
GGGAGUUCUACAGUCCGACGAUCGCAAGAGUGCCUCCUGUAGCAGUUUUAACCAAAUUUCAUUCCCCUGGUACCGUGGAGCUUUAUUUUGCUAUUGAACGCCAAGCUGAAUGUGAGUGACAGGGAACAAUCCCUGGAAUUCUCGGGUGCCAA | 0.537
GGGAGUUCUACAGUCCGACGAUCUAUUUUCAGGAUCUGCUAUAAGGUUGAAAUUUAGCCCAGCUCUAGGCAUUUUACAAAUUAUUUUUCAAGCAGUCAUUCUUGAUUGUUUGACUUUUUUUUUUAAAUUAAAGUGGAAUUCUCGGGUGCCAA | 0.349
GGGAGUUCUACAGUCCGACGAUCUUUACUAUUGUAUGUCAUUUAAUUCUGAUCUGUUUAAUGCUACAAAAGUAAAGUUGAAAAGAUCUAAGACAUCUAGUUACCUAGACUGUACCCAGCAGGUAUCACUUGGUUGGAAUUCUCGGGUGCCAA | 0.333
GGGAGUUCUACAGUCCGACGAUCUGCUGCUAAUUCCCAACAUUUCUUAAAUUAUUUUAUAUCAUACAGUUUUCAUUGAUUAUAUGGGUAUAUAUUCAUCUAAUAAAUCAGUGAACUGUUCCUCAUGUUGCUGAUGGAAUUCUCGGGUGCCAA | 1.01
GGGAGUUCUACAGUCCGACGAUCAUAGAAUGUCCCAGUUAAGAUUUUACAGAAGCACCUGGAAUAUCUCAUUAAAAAUUUAAAAACUCUUUUCCUGCUCUCUUUUGCUUCAUUGUUUGAUUUUAUUAACUUUUUGGAAUUCUCGGGUGCCAA | 1.08
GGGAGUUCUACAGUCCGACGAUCUCUAGGCAGCGAGUGCAGGUGACAACGGUGGUCUAGGGAGAGUUACUGGUAUGGAACACAGACAUGGCGGGGCCCCAGAAGGCCUUUGUAACUGUUUCUUCAACUCUUGCUGGAAUUCUCGGGUGCCAA | 0.484
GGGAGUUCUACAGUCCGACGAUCCGUCCGUCCUGUGGGCGCUCUGCCCUGUGUCCUUCGCGUUCCUCGUUAAGCAGAAGAAGUCAGUAGUUAUUCUCCCAUGAACGUUCUUGUCUGUGUACAGUUUUUAGAACUGGAAUUCUCGGGUGCCAA | 0.547
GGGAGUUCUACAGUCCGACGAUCUUUCUCAGUGUGUGUAUUUCCUAAUUUAUUUACCUCUUUUUUUCCCCUUUCUUUCUUUUUUUUAAUUAAAGAGCAAAACUUUUUAUUACUUUGUAAUUUAAAAAACUGAAUGGAAUUCUCGGGUGCCAA | 0.807
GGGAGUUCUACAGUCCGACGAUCCUCUUCUCCAAGAGCGCAUGCAAGAGUCUCCCCCCCUCAGCCUCAUUAAAGACGAAAAGCCACCUCGGUUUGCUUAACUUUAGAUAGAUAGGACCUGGCGCACACAAGAGUGGAAUUCUCGGGUGCCAA | 3.71
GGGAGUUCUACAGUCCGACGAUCGAGUUUCUCUGUGUAGCUUUGGUUGUCCUGGAACUCACUCUGUAGACCAGGCCAGCCUUGAACUAACACAUAGGUUGGACCUCUGAAUGGCCUUAUACUUGGAUAUUUGGUGGAAUUCUCGGGUGCCAA | 0.348
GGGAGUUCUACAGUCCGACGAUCAAGAUGAUGUUAAUUUGCUGUCAUUUCCUAAUUCAGGAUCUAUCAUCAAAUGAAACAUGAAAAAAACAGUGACUUUUAAGGUGAAAAGAGUUUCAAGCAUUCCAAAUAAAUGGAAUUCUCGGGUGCCAA | 0.373
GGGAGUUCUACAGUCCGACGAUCCCCCUAGCUGAGGCUCCCCCAGAAAACCCCUGGUUUUUUUUUUUUCCAGGGAGCUCAGUUUGAUCAUUCUGGGAAUUCUUGUCCUGCCAGCCUGGUGCGGCUGGGAUCACUGGAAUUCUCGGGUGCCAA | 0.396

Block 4 — method: protein binding microarray; molecule type: double-stranded DNA, one strand shown; sample: in vitro; tested at: not given; baseline: not given; reading: higher = stronger binding
Target: Histone acetyltransferase KAT6A, both winged helices, GST fusion (KAT6A, Homo sapiens, UniProt Q92794, residues 1-181)
Notes: 8-mer, flanks averaged, mean of 2 arrays, mostly near background
Target sequence (chain): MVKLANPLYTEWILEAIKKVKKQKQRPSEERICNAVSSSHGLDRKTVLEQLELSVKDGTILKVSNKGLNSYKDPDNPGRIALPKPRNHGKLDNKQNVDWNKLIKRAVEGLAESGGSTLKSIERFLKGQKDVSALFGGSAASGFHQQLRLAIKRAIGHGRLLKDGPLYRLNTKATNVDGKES
Oligonucleotide | E-score
AAAGCAGA | -0.186
AGCGCACG | 0.271
AGATGCAT | -0.165
GTCCCGGA | 0.169
ATGCTGCA | -0.164
CTGGGGAC | -0.298
ATCTGGGC | -0.0661
GGCCCAAA | -0.128
CGCGTGTC | 0.275
GGCGTTAA | 0.204
ACTCGACA | -0.065
ATCAACAC | -0.0751
ACGAGTAG | 0.107
CGGGCGGA | 0.198
GCGCCTAC | 0.204
AAGCATGT | -0.0914
CAGACATC | -0.174

Block 5 — method: RNAcompete; molecule type: RNA; sample: in vitro; tested at: 20 nM; notes: 7-mer, probes averaged, single round; baseline: mean of 7-mers; reading: higher = stronger binding
Target: PABPC1L2, full length, GST fusion (mouse, UniProt A0ABA7IW68)
Construct (chain): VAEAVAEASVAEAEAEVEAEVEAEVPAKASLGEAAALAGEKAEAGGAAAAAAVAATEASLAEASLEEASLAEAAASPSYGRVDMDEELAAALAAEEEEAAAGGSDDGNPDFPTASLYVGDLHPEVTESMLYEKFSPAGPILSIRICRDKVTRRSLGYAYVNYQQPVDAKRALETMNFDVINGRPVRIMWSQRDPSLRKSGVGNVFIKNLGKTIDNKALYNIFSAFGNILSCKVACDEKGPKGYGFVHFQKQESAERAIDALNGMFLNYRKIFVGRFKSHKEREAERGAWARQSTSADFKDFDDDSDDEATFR
Oligonucleotide | 7-mer Z-score
UACACAC | -0.101
ACAUACC | -0.206
UCUCACG | -0.282
CACGUCU | -0.345
AGUUGGC | -0.0409
CGCUGAU | -0.211
UCAAAGC | -0.199
UGGGGUG | 0.0352
GCUAGGC | -0.0971
ACAGCUU | -0.153
GUGAUGA | -0.238
ACGCACG | -0.0283
UUUGUAG | -0.335
GUUUUGG | -0.3
AUCGCCG | -0.385
AGGAUCG | -0.0246
UUAUGUA | -0.171

Block 6 — method: RNA Bind-n-Seq; molecule type: RNA; sample: in vitro; tested at: 200 nM; notes: whole 134-nt RNA, ends assumed; added: 150 mM KCl; baseline: input library; reading: higher = stronger binding
Target: Ras GTPase-activating protein-binding protein 1, full length (G3BP1, Homo sapiens, UniProt Q13283)
UniProt Q13283, sequence (whole entry, looked up): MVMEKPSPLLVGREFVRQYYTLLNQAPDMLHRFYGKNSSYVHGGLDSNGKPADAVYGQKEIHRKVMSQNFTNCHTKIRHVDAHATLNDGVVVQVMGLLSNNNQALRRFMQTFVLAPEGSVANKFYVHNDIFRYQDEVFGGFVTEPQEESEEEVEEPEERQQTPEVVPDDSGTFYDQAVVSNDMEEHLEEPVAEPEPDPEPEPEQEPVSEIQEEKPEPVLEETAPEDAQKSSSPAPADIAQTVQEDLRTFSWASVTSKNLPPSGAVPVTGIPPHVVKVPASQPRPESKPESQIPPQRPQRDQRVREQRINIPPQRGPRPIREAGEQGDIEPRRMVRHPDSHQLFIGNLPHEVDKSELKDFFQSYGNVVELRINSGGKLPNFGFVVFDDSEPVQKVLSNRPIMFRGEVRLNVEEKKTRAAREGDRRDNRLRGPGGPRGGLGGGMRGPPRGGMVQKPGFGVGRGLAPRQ
Oligonucleotide | log2 enrichment
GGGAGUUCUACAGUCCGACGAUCAGUCCUGUGCUACACAUCGUAUGUACCGAAUCGGGAAAGGGAAAAAAAGGGAAAGGGAAAGUAUUAUGUUACGCCGUUCGGAUCUGCACUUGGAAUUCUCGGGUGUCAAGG | -0.424
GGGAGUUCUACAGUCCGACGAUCCACAGACAACACGCACCCACACAGACACAGAGGGAAGGAGUUGGGAUGGGGACAGGGUGCACAGCAGGGCGGGGUAGGACCCCAGCCCCUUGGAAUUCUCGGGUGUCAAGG | 1.67
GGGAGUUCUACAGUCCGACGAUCAGUCCUGUGCUACACAUCGUAUGUACCGAAUCGGUUUUUUGGUUUUUUGGUUUUUUGGAAAGUAUUAUGUUACGCCGUUCGGAUCUGCACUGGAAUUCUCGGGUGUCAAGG | -1.43
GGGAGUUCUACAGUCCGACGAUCACCAUGCAGGUGGGCAUCUUUGGGAAGUGGGGCAAGGGGGAAAUAGGGAGGGGGGUAACACUUUGGGAACAGGUGGUCCCAGGUCGUUUCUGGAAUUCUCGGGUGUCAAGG | 0.942
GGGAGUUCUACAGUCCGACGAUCCAAGUCCUGUGCUACACAUCGUAUGUACCGAAUCGGUUUUGGUUUUGGUUUUGGGAAAGUAUUAUGUUACGCCGUUCGGAUCUGCACUUCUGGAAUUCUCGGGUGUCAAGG | -1.17
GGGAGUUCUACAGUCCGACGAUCUCCUCAAGUCCUGUGCUACACAUCGUAUGUACCGAAUCGGUUGGUUGGUUGGAAAGUAUUAUGUUACGCCGUUCGGAUCUGCACUUCCAGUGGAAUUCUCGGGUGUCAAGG | 0.0473
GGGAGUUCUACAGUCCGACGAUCUAACUUUAGAGGAGGAUCUGAUGGAUAUGGCAGUGGACGUGGAUUUGGGGAUGGCUAUAAUGGGUAUGGAGGAGGACCAGGAGGUGGCAAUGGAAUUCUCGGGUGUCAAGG | 0.18
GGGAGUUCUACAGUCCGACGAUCCAAGUCCUGUGCUACACAUCGUAUGUACCGAAUCGGAAAAGGAAAAGGAAAAGGGGAAAGUAUUAUGUUACGCCGUUCGGAUCUGCACUUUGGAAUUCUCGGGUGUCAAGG | -0.883
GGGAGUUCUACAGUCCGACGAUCCUCAAGUCCUGUGCUACACAUCGUAUGUACCGAAUCGUGUGUGUGUGUGUGUGUAAAGUAUUAUGUUACGCCGUUCGGAUCUGCACUUCCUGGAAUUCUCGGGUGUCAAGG | 0.138
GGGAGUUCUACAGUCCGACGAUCAGUCCUGUGCUACACAUCGUAUGUACCGAAUCGGGAAAAAAAGGGAAAAAGGGAGGGAAAGUAUUAUGUUACGCCGUUCGGAUCUGCACUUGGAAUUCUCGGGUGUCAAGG | 0.0563
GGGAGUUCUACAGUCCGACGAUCUGGCCCUGGUGGCAUGCGGGGAGGAAGAGGUGGCCUCAUGGAUCGUGGUGGUCCCGGUGGAAUGUUCAGAGGUGGCCGUGGUGAAGACAGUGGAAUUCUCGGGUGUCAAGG | 0.0749
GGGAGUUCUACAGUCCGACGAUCAGUCCUGUGCUACACAUCGUAUGUACCGAAUCGGGUUUUUUUGGGUUUUUGGGAGGGAAAGUAUUAUGUUACGCCGUUCGGAUCUGCACUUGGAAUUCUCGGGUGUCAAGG | -0.178
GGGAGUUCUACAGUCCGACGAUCCUCAACGUUGACAGUAAUGAACAAGGCUCCUAUGUAGUGGCCAUGGAAACCUUUACCAACUUAGGACCCAUUGUCGAUAUGUGCGUGGUGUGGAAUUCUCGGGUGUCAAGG | -0.539
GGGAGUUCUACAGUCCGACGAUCUGGAUAUGGUUAUAGAAGAAGUGGCCGAGAUAAAUAUGGCCCUCCUACUCGCACAGAGUACAGACUUAUUGUGGAGAAUUUGUCAAGUCGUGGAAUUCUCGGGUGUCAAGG | -1.03

Some of these lines once more (block 2):
Oligonucleotide | 6-mer enrichment (R)
UUGACA | 0.698
GUGUAA | 0.964
CUAUGA | 0.635
AUUCCU | 0.536
CCGGAC | 0.944
AUGCGG | 1.73
